Measurements collected from several papers.
Each numbered part is a random draw from the data of one study; scales do not carry over between parts. Changes are numbered by the printed parent chain.

Series 1
Target: CCND2, cyclin fold, Cln2 fusion (human)
Method: yeast growth competition, sequencing
Medium: yeast
Notes: weak parent motif
Baseline: not given
Direction: higher = stronger binding
Endpoint: normalised enrichment score
Parent: CDT1 docking peptide (human); PPARRRLRLSVDE; partner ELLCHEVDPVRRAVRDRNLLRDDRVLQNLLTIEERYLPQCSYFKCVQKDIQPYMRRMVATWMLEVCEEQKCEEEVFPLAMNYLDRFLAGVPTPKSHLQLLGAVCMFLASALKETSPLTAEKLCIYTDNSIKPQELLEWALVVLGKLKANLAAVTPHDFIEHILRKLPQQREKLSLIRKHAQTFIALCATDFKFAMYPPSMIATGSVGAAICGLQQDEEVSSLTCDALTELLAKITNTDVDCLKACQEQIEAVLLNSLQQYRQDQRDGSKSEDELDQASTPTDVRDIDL
PPARRRLRLSVAE [D12A]: 0.845
PPARARARLSVDE [R5A L7A]: 0.0809
PPARRRLALSVDE [R8A]: 0.163
APARRRLRLSVDE [P1A]: 0.297
PPARKRLRFSVDE [R5K L9F]: 0.498
PPARRRARLSVDE [L7A]: 0.318
PPARRRLRLSADE [V11A]: 0.262
PPARKRLRLSVDE [R5K]: 0.15
PAARRRLRLSVDE [P2A]: 0.309

Series 2
Target: RING finger protein unkempt homolog, zinc fingers 1-6, GST-SBP tag (UNK, Homo sapiens, UniProt Q9C0B0, residues 30-357)
Method: RNA Bind-n-Seq
Form: RNA
Medium: in vitro
Concentration: not given
Notes: RNA with constant flanks, human and mouse sites, ends assumed
Baseline: input RNA pool
Direction: higher = stronger binding
Endpoint: bound/input enrichment
Shared flanks, not repeated: GGGAGUUCUACAGUCCGACGAUC … CAACAGAGGAUUGAGCAUCA
Residues (chain): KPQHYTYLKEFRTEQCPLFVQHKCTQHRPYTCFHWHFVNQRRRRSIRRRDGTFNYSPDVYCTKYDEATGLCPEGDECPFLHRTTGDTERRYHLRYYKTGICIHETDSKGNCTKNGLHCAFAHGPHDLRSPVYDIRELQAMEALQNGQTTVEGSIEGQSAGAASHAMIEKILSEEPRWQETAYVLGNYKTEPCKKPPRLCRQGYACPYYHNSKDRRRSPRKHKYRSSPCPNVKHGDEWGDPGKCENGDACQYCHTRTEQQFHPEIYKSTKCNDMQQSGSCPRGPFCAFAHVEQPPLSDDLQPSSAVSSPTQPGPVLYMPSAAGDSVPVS
GAGGAUGCUGCCUCCUACGUUAGAAAGGUUAUUCCAAAAGAUUAUAAGACAAUGGCUGCUUUAGCCAAGGCCAUCGAAAAGAAUGUGCUGUUUUCACACCUUGAUGAUAACGAGAGAAGU: 2.57 ratio
UCCGCGGAAGUCCCCGAGGCAGCGUCUGCGGAGGAGCAAAAGGAAAUGGAAGAUAAAGUAACUAGUCCAGAGAAAGCUGAAGAAGCAAAGUUAAAGGCAAGGUAUCCUCACUUGGGACAA: 0.417 ratio
AACAGCGGACUCCGAGACCAGCGGAUCUCGGCAAACCCUCUUUCUCGACCACCCACCUACCAUUCUUGGAACCAUGGCGGCAGUGGCGGCGGCCUCGGCUGAACUGCUCAUCAUCGGCUG: 0.0817 ratio
UCCACCGGGGAUGCGGCUCGUCAGGGGGUGUACGAGAACUUCCGGCGGGAGCUGGAGAUGAGCACCACCAACAGCGAGAGCCUGGAGGAGGCCGGCUCGGCGCACAGCGAUGAGCAGAGC: 0.112 ratio
UACAAAGCUUUUCCAGCUGCAAAUGAACGAGAUGAAGUGUUUGAAAAAGAGCCUUUGUAUGGUGGGAUGCUAAUAGAGGAUUAUAUUUAUGAAUCUUUAGUAGAAGACACGUACAAUGGA: 0.279 ratio
CAAAAAAUGGUGCCUCCGGAUGCUCCUUCUUCUGUGAGCACAGGCUCCCCUCAGCCCCCUAGCUUCACCUAUGCUCAGCAGAAGGAGAAGCCCCUAGUUCAAGAGAAGCAGCACCCACAG: 0.354 ratio
AACCACAAUGACUGGAUUAAGCAGUAUGAAACGCUCGCAGAAAUGGUAGUACCAAGGUCAAGCAAUGUUCUUUCAGAGGACCAAGACAGUUAUCUUUGUAACGUCACCUUGUUUAGAAAA: 0.229 ratio
CUAGCUGAAAUAACCCUUGAUCCUCCUCCUAAUUGCAGUGCUGGGCCUAAAGGAGAUAACAUUUAUGAAUGGAGAUCAACUAUACUUGGUCCACCGGGUUCUGUAUAUGAAGGUGGUGUG: 0.413 ratio
GUUACUAUUUCUACAUGUUGUCCAUGAUGUGACUUUCGUAAACCUUCAAAAUUAUUUGGGCAUAGUGCUCUAUGUUUAAUAAAGGUUUUUAUAGAUGUUUUAUUCCAUAUGUCUUCACAA: 0.2 ratio
AAUUCCAUUGCCAACUUUUUCCGCUUGUUAUCUCAGGGGGGUGGAAAAAUCAAGGUUGAGAUUCUGAAAAUACUUUCAAACUUUGCUGAAAAUCCGGACAUGCUAAAGAAACUUCUCGGU: 0.258 ratio
AUAAUGUUUGAGUCCUUCAAUGUUCCAGGCUUGUACAUUGCUGUGCAGGCUGUUCUUGCCUUAGCUGCAUCUUGGACCUCAAGACAAGUAGGAGAACGGACGUUGACCGGUACGGUAAUA: 0.186 ratio

Series 3
Substance: VIM (Homo sapiens, UniProt P08670)
Method: cross-linking MS
Medium: cell fractions
Endpoint: cross-linked residues
NES (Homo sapiens, UniProt P48681); with: DSSO: K120 to T322
PLEC (Homo sapiens, UniProt Q15149); with: DSSO: K168 to K4513
VPS13D (Homo sapiens, UniProt Q5THJ4); with: DSSO: K188 to S1433
DNM1 (Homo sapiens, UniProt Q05193); with: DMTMM: D209 to K508
ELAC1 (Homo sapiens, UniProt Q9H777); with: DSSO: K445 to K176
ABCA10 (Homo sapiens, UniProt Q8WWZ4); with: DSSO: K120 to K1328
TAOK1 (Homo sapiens, UniProt Q7L7X3); with: DSSO: K129 to K716
ADNP2 (Homo sapiens, UniProt Q6IQ32); with: DSSO: K313 to Y1046

Series 4
Target: Ras GTPase-activating protein-binding protein 1, full length (G3BP1, Homo sapiens, UniProt Q13283)
Chain of UniProt Q13283 (whole entry, looked up): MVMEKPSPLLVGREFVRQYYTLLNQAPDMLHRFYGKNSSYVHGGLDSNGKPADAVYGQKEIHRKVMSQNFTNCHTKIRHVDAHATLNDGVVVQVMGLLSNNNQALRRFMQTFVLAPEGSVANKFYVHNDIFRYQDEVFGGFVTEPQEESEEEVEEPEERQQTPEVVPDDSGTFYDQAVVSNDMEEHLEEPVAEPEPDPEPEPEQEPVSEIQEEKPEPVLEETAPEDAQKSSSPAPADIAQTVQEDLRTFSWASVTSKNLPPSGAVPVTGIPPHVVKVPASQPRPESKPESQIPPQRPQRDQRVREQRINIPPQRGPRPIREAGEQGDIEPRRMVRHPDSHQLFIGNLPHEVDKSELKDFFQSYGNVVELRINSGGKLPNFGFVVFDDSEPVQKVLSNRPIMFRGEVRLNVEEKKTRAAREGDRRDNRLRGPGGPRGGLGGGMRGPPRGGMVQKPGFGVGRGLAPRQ
Method: RNA Bind-n-Seq
Form: RNA
Medium: in vitro
Concentration: 200 nM
Notes: whole 134-nt RNA, ends assumed
With: 150 mM LiCl
Baseline: input library
Direction: higher = stronger binding
Endpoint: log2 enrichment
All molecules: 7-deaza-guanosine replaces G
Shared flanks, not repeated: GGGAGUUCUACAGUCCGACGAUC … UGGAAUUCUCGGGUGUCAAGG
AAGUCCUGUGCUACACAUCGUAUGUACCGAAUCAAACCCCCAAACCCAAAUUUAAAAAAGUAUUAUGUUACGCCGUUCGGAUCUGCACUU: 1.14
AAGUCCUGUGCUACACAUCGUAUGUACCGAAUCGGGAAAGGGUUUGGGAAAAAGGGAAAGUAUUAUGUUACGCCGUUCGGAUCUGCACUU: -1.24
UGGGAGGUGGAUUUUGUUUAUUUUUUUAGCUCAUUUCCAGGGGUGGGAACUUUUUUUUAAUAUGUGUCAUGAAUAAAGUUGUUUUUGAAA: -0.612
CCUCAAGUCCUGUGCUACACAUCGUAUGUACCGAAUCGGCGGGCGGGGCGGGAAAGUAUUAUGUUACGCCGUUCGGAUCUGCACUUCCAG: 0.541
GUCCUGUGCUACACAUCGUAUGUACCGAAUCGGGAAAAAAAGGGAGGGUUUUUUUGGGAAAGUAUUAUGUUACGCCGUUCGGAUCUGCAC: -0.766
UCCUGUGCUACACAUCGUAUGUACCGAAUCGGGUUUUUUGGGGUUUUUUGGUUUUUUGGGAAAGUAUUAUGUUACGCCGUUCGGAUCUGC: 0.49
UACCAAUUGGCCUUUAUUGACUGUAUCCAAAGGAUUUUUUGAAGGCACCAUUGCCAGCAAAGGUAAGUACCUAUUUCUCCCAUAGCACUU: 0.31
UAACUUUAGAGGAGGAUCUGAUGGAUAUGGCAGUGGACGUGGAUUUGGGGAUGGCUAUAAUGGGUAUGGAGGAGGACCUGGAGGUGACAA: 0.147
GCAGGAAGUAAAAACAAAUGGAAAUGCUUCGGAUAGUGGCAGAGGUGGGGGUUGCUAAGGAAAGGGUGGGAUGGGAGUGGGUAAAGAGUU: 0.133
UGGAUUUUCAAGACACGAAUGCUCGGAGUCUGGCAGAAAGGAAGAGAGAAGAGGAGAAGCAGAAGCACUUGGAUAAAAUUUAUCAAGAAA: -1.08
AGUAGCUAUGGUCAACAAAGCAGCUAUGGGCAGCAGCCUCCCACUAGUUACCCACCCCAAACUGGAUCCUACAGCCAAGCUCCAAGUCAA: 0.903

Series 5
Target: Prothrombin, mature alpha-thrombin (F2, Homo sapiens, UniProt P00734)
Method: aptamer microarray, sandwich
Form: DNA with 2'F-ANA
Medium: in vitro
Concentration: 200 nM
Notes: whole 15-mer aptamer, many near background
With: Cy3 exosite-II aptamer, 400 nM
Direction: higher = stronger binding
Endpoint: mean fluorescence intensity
Strand: GGTTGGTGTGGTTGG
2'F-ANA at 1 2 3 4 6 8 10 11 15: 58.6 a.u.
2'F-ANA at 1 3 4 6 7 10 13 15: 64.1 a.u.
2'F-ANA at 1 2 3 4 5 6 7 8 9 12 15: 108 a.u.
2'F-ANA at 1 4 7 9 10 12 13: 53.6 a.u.
2'F-ANA at 4 5 6 7 8 11 13 15: 50.7 a.u.
2'F-ANA at 4 5 6 7 9 11 12 14: 82.1 a.u.
2'F-ANA at 4 5 6 8 11 13: 51.1 a.u.
2'F-ANA at 1 2 3 6 11 14: 92 a.u.
2'F-ANA at 2 3 6 7 10 11 12 13 15: 324 a.u.
2'F-ANA at 4 5 6 7 8 9 10 12: 79.3 a.u.
2'F-ANA at 1 2 3 14: 99.2 a.u.
2'F-ANA at 2 3 4 5 7 8 14: 68.9 a.u.
2'F-ANA at 1 2 4 9 12 13: 174 a.u.
2'F-ANA at 2 4 5 8 12: 152 a.u.
2'F-ANA at 2 3 4 7 8 9 13 14 15: 257 a.u.
2'F-ANA at 1 8 9 13 15: 168 a.u.
2'F-ANA at 1 5 6 7 8 9 12 14 15: 62.3 a.u.
2'F-ANA at 2 3 4 7 13 15: 540 a.u.
2'F-ANA at 1 7 8 13: 149 a.u.

Further values, each from its own experiment
PhoQ, residues 284 288 289 292 302 303 SCKMEA — fold induction (PhoP, residues 12 14 15 18 19 IQFRS (Escherichia coli, UniProt P23836); Sort-seq, item: YFP reporter; E. coli; PhoQ-PhoP variant library, with: 10 µM Mg2+; baseline: high Mg2+ state, higher = stronger signaling): 24.4
